Experimental data collected from several papers.
A part holds a random share of what one study measured. Positions count from the first letter of the parent shown.

Set 1
Target: ABI1, truncated, D143A, DHFR fusion (Arabidopsis thaliana)
Technique: DHFR PCA, deep sequencing
Matrix: yeast
Setting: methotrexate growth selection, single substitutions
Together with: (+)-ABA 0.0091 µM
Baseline: wild-type fitted maximum
Direction: higher = stronger binding
Starting sequence: PYL1, truncated, DHFR fusion (Arabidopsis thaliana); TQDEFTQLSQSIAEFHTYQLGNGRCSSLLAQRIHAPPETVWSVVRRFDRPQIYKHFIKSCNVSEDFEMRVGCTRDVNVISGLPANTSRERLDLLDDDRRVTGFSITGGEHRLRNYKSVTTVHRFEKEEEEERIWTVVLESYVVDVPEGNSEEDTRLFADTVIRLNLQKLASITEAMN; partner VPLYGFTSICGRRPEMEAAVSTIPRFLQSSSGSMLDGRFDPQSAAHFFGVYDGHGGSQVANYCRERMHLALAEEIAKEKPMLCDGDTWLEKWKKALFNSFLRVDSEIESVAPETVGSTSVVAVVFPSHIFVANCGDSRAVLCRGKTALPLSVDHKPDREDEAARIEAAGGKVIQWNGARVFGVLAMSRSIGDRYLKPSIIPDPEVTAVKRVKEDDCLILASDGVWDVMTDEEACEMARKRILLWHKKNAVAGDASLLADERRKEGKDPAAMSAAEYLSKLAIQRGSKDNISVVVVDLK
Variant | relative binding score
V145M | 0.204%
T173I | 4.65%
D75F | 19.3%
V143A | 3.35%
L20Q | 35.7%
F66M | -1.52%
F157S | 1.09%
S80F | 64.3%
I57R | 0.656%

Set 2
Target: CCNA1, cyclin fold, Cln2 fusion (human)
Technique: yeast growth competition, sequencing
Matrix: yeast
Setting: weak parent motif
Baseline: not given
Direction: higher = stronger binding
Starting sequence: CDC25A docking peptide (human); PPHRRRLLFACSP; partner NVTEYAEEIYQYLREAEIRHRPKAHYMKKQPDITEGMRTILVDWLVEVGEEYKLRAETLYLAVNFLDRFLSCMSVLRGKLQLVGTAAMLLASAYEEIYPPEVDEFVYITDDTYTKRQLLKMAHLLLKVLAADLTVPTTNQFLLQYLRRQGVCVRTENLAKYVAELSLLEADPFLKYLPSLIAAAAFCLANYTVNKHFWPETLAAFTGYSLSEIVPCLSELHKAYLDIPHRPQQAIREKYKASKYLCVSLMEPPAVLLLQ
Variant | normalised enrichment score
R6G | 0.144
L7H | 0.0228
R4N | 0.382
P13L | 0.237
P1M | 0.287
R4M | 0.123
F9Y | 0.24
F9T | 0.478
L8C | 0.167
P2R | 0.435
S12V | 0.399

Set 3
Target: Histone acetyltransferase KAT6A, winged helix 1, GST fusion (KAT6A, Homo sapiens, UniProt Q92794, residues 1-85)
Technique: protein binding microarray
Molecule type: double-stranded DNA, one strand shown
Matrix: in vitro
Tested at: not given
Setting: 8-mer, flanks averaged, mean of 2 arrays, mostly near background
Baseline: not given
Direction: higher = stronger binding
Construct (chain): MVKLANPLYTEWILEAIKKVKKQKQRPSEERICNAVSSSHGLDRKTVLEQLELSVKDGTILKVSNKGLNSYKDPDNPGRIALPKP
Strand | E-score
TCAAGGGA | -0.112
TTAGTCAA | 0.00808
GTCAAGAA | -0.146
CTGCAAGC | -0.0118
ATATCGTG | 0.0199
ACACCCAA | -0.182
ATTTACAG | -0.134
AATAGAGC | -0.134
CCAATGAG | -0.111

Single results of other studies
Molecule | target | test | system | setting | how to read | endpoint | value
PhoQ, residues 284 288 289 292 302 303 QWQEDG | PhoP, residues 12 14 15 18 19 HLGGL (Escherichia coli, UniProt P23836) | Sort-seq, item: YFP reporter | E. coli | PhoQ-PhoP variant library, together with: 10 µM Mg2+ | baseline: high Mg2+ state, higher = stronger signaling | fold induction | 1.92

For quick reference, copied from above (set 3):
Strand | E-score
ATATCGTG | 0.0199
ACACCCAA | -0.182
ATTTACAG | -0.134
